Assay results pooled from the literature.
Protocols differ between the studies behind these lines. Numbers after ± are the reported error.
Tmem97: Sigma intracellular receptor 2 (Tmem97, Rattus norvegicus, UniProt Q5U3Y7)
UniProt Q5U3Y7, sequence (whole entry, looked up): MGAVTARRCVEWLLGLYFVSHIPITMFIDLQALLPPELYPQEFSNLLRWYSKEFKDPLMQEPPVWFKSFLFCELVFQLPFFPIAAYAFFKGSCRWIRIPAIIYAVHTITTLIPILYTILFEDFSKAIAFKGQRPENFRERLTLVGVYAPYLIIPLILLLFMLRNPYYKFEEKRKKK
OXTR: Oxytocin receptor (OXTR, Homo sapiens, UniProt P30559)
UniProt P30559, sequence (whole entry, looked up): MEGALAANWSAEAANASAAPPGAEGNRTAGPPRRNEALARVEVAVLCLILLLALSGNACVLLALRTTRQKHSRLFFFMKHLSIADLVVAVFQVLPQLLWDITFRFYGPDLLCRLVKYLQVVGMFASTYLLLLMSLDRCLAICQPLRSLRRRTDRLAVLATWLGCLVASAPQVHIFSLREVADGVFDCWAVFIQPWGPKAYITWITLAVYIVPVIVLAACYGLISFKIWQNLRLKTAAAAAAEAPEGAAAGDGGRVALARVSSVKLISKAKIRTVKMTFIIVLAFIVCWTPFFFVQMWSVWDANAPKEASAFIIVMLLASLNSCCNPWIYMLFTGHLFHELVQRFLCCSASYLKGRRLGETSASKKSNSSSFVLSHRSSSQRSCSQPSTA
Metallo-beta-lactamase type 2: Metallo-beta-lactamase type 2 (Serratia marcescens, UniProt P52699)
Bifunctional dihydrofolate reductase-thymidylate synthase: Bifunctional dihydrofolate reductase-thymidylate synthase (Leishmania major, UniProt P07382)
Slc18a2: Synaptic vesicular amine transporter (Slc18a2, Rattus norvegicus, UniProt Q01827)
UniProt Q01827, sequence (whole entry, looked up): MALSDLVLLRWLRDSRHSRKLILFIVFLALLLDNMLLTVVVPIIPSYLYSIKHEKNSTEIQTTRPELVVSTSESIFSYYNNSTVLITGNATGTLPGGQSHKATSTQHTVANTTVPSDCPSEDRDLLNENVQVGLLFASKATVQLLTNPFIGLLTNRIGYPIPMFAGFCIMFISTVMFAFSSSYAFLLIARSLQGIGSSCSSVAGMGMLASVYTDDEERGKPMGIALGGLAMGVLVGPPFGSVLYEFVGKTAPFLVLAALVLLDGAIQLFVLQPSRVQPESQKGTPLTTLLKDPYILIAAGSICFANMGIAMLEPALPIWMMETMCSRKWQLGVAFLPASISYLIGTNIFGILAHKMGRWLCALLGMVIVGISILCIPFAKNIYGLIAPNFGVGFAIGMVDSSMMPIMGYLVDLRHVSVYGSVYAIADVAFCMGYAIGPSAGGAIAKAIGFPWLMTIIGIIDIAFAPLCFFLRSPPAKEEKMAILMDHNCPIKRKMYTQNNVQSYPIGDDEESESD
HTR2B: 5-hydroxytryptamine receptor 2B (HTR2B, Homo sapiens, UniProt P41595)
UniProt P41595, sequence (whole entry, looked up): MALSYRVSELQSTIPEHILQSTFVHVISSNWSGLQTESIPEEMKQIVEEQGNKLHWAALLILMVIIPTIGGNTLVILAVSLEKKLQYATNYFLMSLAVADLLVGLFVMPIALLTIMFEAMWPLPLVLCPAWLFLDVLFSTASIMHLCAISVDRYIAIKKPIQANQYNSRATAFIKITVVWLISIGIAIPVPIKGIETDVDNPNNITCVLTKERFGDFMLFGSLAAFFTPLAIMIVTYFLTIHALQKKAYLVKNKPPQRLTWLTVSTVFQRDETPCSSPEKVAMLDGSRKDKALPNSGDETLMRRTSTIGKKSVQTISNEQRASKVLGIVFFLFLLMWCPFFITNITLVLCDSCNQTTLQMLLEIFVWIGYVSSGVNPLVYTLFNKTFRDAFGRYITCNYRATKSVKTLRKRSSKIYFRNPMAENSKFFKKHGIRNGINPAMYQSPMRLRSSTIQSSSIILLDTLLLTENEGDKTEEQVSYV
F2: Prothrombin (F2, Homo sapiens, UniProt P00734)
Genome polyprotein NS5B polymerase: Genome polyprotein, NS5B polymerase (Hepatitis C virus genotype 1b, UniProt P26663)
UniProt P33535, sequence (whole entry, looked up): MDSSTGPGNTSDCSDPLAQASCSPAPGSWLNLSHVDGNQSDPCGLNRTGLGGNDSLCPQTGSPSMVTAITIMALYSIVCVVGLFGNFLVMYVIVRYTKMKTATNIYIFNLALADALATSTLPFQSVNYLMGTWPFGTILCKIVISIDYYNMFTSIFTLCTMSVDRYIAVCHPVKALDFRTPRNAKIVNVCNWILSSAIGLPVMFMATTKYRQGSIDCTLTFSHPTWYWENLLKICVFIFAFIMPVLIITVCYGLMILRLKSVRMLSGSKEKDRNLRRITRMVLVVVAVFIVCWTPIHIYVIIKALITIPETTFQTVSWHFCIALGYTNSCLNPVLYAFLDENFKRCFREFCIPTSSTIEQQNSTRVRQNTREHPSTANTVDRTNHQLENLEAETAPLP
UniProt P41146, sequence (whole entry, looked up): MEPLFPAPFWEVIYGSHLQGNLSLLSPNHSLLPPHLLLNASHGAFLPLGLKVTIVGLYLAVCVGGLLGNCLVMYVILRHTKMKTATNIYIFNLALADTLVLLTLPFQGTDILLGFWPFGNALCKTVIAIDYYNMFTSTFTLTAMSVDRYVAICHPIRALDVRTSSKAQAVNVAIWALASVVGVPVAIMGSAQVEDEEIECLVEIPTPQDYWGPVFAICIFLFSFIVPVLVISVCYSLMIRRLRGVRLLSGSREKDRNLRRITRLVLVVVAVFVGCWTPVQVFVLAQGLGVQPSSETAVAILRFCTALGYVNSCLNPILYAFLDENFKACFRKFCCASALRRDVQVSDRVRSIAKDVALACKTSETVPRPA
UniProt P50391, sequence (whole entry, looked up): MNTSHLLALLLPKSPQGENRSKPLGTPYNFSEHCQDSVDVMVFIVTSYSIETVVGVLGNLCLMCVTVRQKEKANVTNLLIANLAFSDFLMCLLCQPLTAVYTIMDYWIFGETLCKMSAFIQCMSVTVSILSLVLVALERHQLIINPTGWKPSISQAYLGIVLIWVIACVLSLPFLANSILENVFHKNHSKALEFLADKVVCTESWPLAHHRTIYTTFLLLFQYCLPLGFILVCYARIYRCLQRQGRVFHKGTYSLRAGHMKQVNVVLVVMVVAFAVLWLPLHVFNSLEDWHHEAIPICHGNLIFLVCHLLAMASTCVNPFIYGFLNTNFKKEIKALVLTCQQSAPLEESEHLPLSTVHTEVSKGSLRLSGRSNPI
UniProt P54764, sequence (whole entry, looked up): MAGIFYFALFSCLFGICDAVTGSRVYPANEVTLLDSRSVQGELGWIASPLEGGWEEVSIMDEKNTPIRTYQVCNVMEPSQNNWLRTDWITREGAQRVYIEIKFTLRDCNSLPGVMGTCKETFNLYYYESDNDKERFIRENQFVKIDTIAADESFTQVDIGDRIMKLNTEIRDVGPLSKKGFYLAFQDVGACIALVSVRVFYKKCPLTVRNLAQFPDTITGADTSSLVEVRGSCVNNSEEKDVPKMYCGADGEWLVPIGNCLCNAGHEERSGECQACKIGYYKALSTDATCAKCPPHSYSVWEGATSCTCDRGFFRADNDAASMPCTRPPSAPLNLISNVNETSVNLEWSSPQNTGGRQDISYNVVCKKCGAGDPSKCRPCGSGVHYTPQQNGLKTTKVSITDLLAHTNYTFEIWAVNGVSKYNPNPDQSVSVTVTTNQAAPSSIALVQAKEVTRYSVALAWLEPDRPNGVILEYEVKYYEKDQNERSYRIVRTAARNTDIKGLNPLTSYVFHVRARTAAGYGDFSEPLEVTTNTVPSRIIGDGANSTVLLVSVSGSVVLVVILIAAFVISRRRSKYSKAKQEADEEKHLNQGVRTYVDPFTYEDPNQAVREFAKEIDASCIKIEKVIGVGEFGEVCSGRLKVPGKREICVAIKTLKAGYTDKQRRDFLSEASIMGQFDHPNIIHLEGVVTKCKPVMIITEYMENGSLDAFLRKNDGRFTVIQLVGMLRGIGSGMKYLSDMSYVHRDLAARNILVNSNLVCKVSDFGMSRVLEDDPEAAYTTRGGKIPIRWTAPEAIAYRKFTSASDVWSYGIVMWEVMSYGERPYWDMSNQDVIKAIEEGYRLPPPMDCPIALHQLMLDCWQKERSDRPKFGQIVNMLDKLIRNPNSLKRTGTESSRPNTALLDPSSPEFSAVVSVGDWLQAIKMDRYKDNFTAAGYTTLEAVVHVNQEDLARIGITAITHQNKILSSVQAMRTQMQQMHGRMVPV
UniProt Q96SB4, sequence (whole entry, looked up): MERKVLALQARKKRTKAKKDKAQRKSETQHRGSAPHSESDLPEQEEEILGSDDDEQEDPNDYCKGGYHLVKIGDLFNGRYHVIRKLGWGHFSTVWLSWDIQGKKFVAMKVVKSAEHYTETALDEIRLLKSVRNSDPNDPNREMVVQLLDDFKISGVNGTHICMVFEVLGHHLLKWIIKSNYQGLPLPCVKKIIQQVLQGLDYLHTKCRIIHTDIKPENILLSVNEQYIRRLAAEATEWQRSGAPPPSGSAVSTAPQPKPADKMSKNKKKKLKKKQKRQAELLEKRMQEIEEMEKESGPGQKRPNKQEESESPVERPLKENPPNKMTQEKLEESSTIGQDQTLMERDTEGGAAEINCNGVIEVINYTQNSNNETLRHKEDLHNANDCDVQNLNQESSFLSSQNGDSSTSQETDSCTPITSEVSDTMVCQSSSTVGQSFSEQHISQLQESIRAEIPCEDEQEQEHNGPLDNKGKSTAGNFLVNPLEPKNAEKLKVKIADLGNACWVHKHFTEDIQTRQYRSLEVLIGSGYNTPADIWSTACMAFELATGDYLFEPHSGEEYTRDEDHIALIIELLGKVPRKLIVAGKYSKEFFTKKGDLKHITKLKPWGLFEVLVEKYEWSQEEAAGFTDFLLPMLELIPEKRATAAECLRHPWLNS
UniProt P05089, sequence (whole entry, looked up): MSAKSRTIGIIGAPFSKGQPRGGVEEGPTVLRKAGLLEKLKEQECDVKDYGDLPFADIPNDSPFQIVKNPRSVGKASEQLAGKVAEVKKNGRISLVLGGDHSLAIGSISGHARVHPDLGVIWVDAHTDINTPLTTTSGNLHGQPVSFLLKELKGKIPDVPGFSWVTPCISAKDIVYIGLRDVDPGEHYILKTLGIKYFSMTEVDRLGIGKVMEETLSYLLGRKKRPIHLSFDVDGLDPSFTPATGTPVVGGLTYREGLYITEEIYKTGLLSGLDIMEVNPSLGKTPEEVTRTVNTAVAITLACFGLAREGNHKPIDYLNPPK

`CCC(=O)c1ccc2c(c1)sc(=O)n2CCN1CCCCCC1` has a Ki of 2.18 µM (Tmem97; ligand displacement, radioligand).
`CC(C)[C@@H]1NC(=O)[C@H](Cc2ccccc2)NC(=O)[C@]2(CC[C@H](c3ccccc3)CC2)NC(=O)[C@@H](N)CSSC[C@@H](C(=O)N2CCC[C@H]2C(=O)N[C@@H](CCCNC(=N)N)C(=O)NCC(N)=O)NC(=O)[C@H](CC(N)=O)NC1=O` has a Ki of 0.0888 µM (OXTR; ligand displacement, radioligand; cell membranes).
With `CCCCc1ccc2c(c1)sc(=O)n2CCCCCCN1CCCCCC1` the Ki was 0.0041 µM (Tmem97; ligand displacement, radioligand).
The Ki of `CN(C)c1ccc2c(c1)C(=O)N(C(CS)C(N)=O)C2=O` (stereo not drawn) is reported as 0.08 ± 0.01 µM (Metallo-beta-lactamase type 2; enzyme activity, inhibitor; Km 4.8 µM, with: chromacef 25 µM).
The Ki of `CCCC(=O)c1ccc2c(c1)sc(=O)n2CCCN1CCCCCC1` is reported as 0.104 µM (Tmem97; ligand displacement, radioligand).
`CC[C@H](C)[C@@H]1NC(=O)[C@H](Cc2ccc(O)cc2)NC(=O)[C@@H](N)CCc2cn(nn2)C[C@@H](C(=O)N2CCC[C@H]2C(=O)N[C@@H](CC(C)C)C(=O)NCC(N)=O)NC(=O)[C@H](CC(N)=O)NC(=O)[C@H](CCC(N)=O)NC1=O` has a Ki of 12 µM (OXTR; ligand displacement, radioligand; cell membranes).
`N=C(N)Nc1nc2ccc(Cl)cc2[nH]1` has a Ki of 0.58 µM (Bifunctional dihydrofolate reductase-thymidylate synthase; enzyme activity, competitive inhibitor; with: dihydrofolate 60 µM, NADPH 100 µM).
`Cc1ccc(-c2nc3c(=O)n(C)c(=O)nc-3n(C)n2)cc1` gave a Ki of 29.4 µM (Trypanothione reductase (TPR, Trypanosoma brucei brucei, UniProt P39051); enzyme activity, inhibitor; with: NADPH varied, fixed trypanothione disulfide).
`O=c1sc2ccccc2n1CCCCN1CCCCCC1` has a Ki of 0.101 µM (Tmem97; ligand displacement, radioligand).
The Ki of `c1ccc(CCCC2CCC(CCCc3ccccc3)N2)cc1` (stereo not drawn) is reported as 0.014 µM (Slc18a2; transporter uptake, inhibitor, radiometric).
`CCCCc1ccc2c(c1)sc(=O)n2CCCN1CCCCCC1` gave a Ki of 0.0153 µM (Tmem97; ligand displacement, radioligand).
`CC(C)[C@H]1CC[C@H](N2CC[C@@](C)(c3cccc(O)c3)[C@@H](C)C2)CC1` has a Ki of > 10 µM (Nociceptin receptor (OPRL1, Homo sapiens, UniProt P41146); ligand displacement, radioligand).
For `COc1c(OCCOCCOCCOCCOc2cccc(C(=O)C3CCN(CCc4ccc(F)cc4)CC3)c2OC)cccc1C(=O)C1CCN(CCc2ccc(F)cc2)CC1`, the Ki was 0.126 µM (HTR2B; ligand displacement, radioligand).
`Cc1cc(O)cc(C)c1CC(N)C(=O)NC1CCNc2c(Cc3ccccc3)cc(Cc3ccccc3)cc21` (stereo not drawn) gave a Ki of 0.001 µM (Mu-type opioid receptor (Oprm1, Rattus norvegicus, UniProt P33535); ligand displacement, radioligand; cell membranes).
For `CN1C(CCc2ccccc2)CCC1CCc1ccccc1` (stereo not drawn), the Ki was 8.8 ± 2.3 µM (Slc18a2; binding; rat whole brain vesicles; with: 5 nM [3H]dihydrotetrabenazine).
For `CCC(=O)c1ccc2c(c1)sc(=O)n2CCCCN1CCCCCC1`, the Ki was 0.0303 µM (Tmem97; ligand displacement, radioligand).
For `CC[C@H](C)[C@H](NC(=O)[C@H](CCC(=O)O)NC(=O)[C@H](Cc1ccc(N)cc1)NC(=O)[C@@H](C)NC(=O)[C@@H](N)Cc1ccc(O)cc1)C(=O)N[C@H](C(=O)NCC(N)=O)[C@@H](C)CC`, the Ki was > 1 µM (Mu-type opioid receptor (Oprm1, Mus musculus, UniProt P42866); ligand displacement, radioligand; cell membranes).
With `C[C@H](NC(=O)[C@H](CCCNC(=N)N)NC(=O)[C@H](CCC(=O)O)NC(=O)[C@H](CCCNC(=N)N)NC(=O)[C@H](CCCNC(=N)N)NC(=O)[C@@H](NC(=O)[C@H](CCCNC(=N)N)NC(=O)[C@H](C)NC(=O)[C@H](CCCNC(=N)N)NC(=O)[C@H](CCC(=O)O)NC(=O)[C@@H](N)CCCNC(=N)N)[C@@H](C)O)C(=O)N[C@@H](CCCNC(=N)N)C(=O)N[C@H](C(=O)N[C@@H](CCCNC(=N)N)C(=O)N[C@@H](CCC(=O)O)C(=O)N[C@@H](CCCNC(=N)N)C(=O)N[C@@H](C)C(=O)N[C@@H](CCCNC(=N)N)C(=O)N[C@H](C(=O)N[C@@H](CCCNC(=N)N)C(=O)O)[C@@H](C)O)[C@@H](C)O` the Ki was 2.12 µM (SRSF protein kinase 1 (SRPK1, Homo sapiens, UniProt Q96SB4); enzyme activity, inhibitor, radiometric).
`COc1c(OCCOCCOCCOCCOCCOCCOCCOc2cccc(C(=O)C3CCN(CCc4ccc(F)cc4)CC3)c2OC)cccc1C(=O)C1CCN(CCc2ccc(F)cc2)CC1` gave a Ki of 1.4 µM (HTR2B; ligand displacement, radioligand).
For `CC1(CCN2CCc3ccccc3C2)Cc2cc(Cl)ccc2C1=O` (single isomer, unassigned), the Ki was 0.059 µM (HTR2B; ligand displacement, radioligand).
`COc1c(OCCOCCOc2cccc(C(=O)C3CCN(CCc4ccc(F)cc4)CC3)c2OC)cccc1C(=O)C1CCN(CCc2ccc(F)cc2)CC1` has a Ki of 0.202 µM (HTR2B; ligand displacement, radioligand).
`O[C@@H]1[C@@H](O)[C@H](O[C@@H]2OC[C@@H](O)[C@H](O)[C@H]2O)C[C@H]2N[C@@H]12` has a Ki of 1 µM (endo-1,4-beta-xylanase (Aspergillus aculeatus, UniProt A0A1L9WG58); covalent inhibitor; pH 5.0, with: 4MU-β-D-xylobioside 1 mM).
For `O=c1c2ccc(Oc3ccc(OC(F)(F)F)cc3)cc2[nH]c2cccc(F)c12`, the Ki was 0.098 µM (dihydroorotate dehydrogenase (Toxoplasma gondii, UniProt Q8MXD1); inhibitor).
The Ki of `O=C(N[C@@H](Cc1ccc(F)cc1)C(=O)CCl)OCc1ccccc1` is reported as 150 µM (F2).
For `CNC(=O)C1CCN(c2ccccc2NC(=O)c2ccc(-c3cc(O)ccc3C)c(C)n2)CC1`, the Ki was 0.0004 µM (Ephrin type-A receptor 4 (EPHA4, Homo sapiens, UniProt P54764); cell-free assay, TR-FRET).
The Ki of `CC[C@H](C)[C@H](NC(=O)[C@H](CCC(=O)O)NC(=O)[C@H](Cc1ccc(F)cc1)NC(=O)[C@@H](C)NC(=O)[C@@H](N)Cc1ccc(O)cc1)C(=O)N[C@H](C(=O)NCC(N)=O)[C@@H](C)CC` is reported as > 1 µM (Mu-type opioid receptor (Oprm1, Mus musculus, UniProt P42866); ligand displacement, radioligand; cell membranes).
With `CN(C)C(=N)N=C(N)N` the Ki was > 50000 µM (Arginase-1 (ARG1, Homo sapiens, UniProt P05089); enzyme activity, inhibitor, absorbance).
With `O=c1sc2ccccc2n1CCN1CCCC1` the Ki was 8.26 µM (Tmem97; ligand displacement, radioligand).
The Ki of `COc1cc2c(cc1O)oc(=O)c1c3cc(O)c(O)cc3oc21` is reported as 4.5 µM (Genome polyprotein NS5B polymerase; RNA polymerase activity, competitive inhibitor; with: poly rA/U12 varied, UTP 25 µM).
With `CC1(C)NC(N)=Nc2nc3ccccc3n21` the Ki was 0.48 µM (Bifunctional dihydrofolate reductase-thymidylate synthase; enzyme activity, competitive inhibitor; with: dihydrofolate 60 µM, NADPH 100 µM).
With `O=C(O)c1cccc(CP(=O)(O)O)n1` the Ki was 1.1 ± 0.2 µM (Metallo-beta-lactamase type 2; enzyme activity, inhibitor, slow-binding progress curves; with: nitrocefin substrate).
`O=c1oc2cc(O)c(O)cc2c2oc3cc4c(cc3c12)OCO4` has a Ki of 42 µM (Genome polyprotein NS5B polymerase; RNA polymerase activity, noncompetitive inhibitor vs UTP; with: UTP 2.5 to 80 µM varied, poly rA/U12 0.25 µM).
`CC(=O)N[C@@H](CCCNC(=N)N)C(=O)N[C@@H](Cc1ccc(O)cc1)C(=O)N[C@@H](CCCNC(=N)N)C(=O)N[C@@H](CC(C)C)C(=O)N[C@@H](CCCNC(=N)NC(=O)NCCCCN)C(=O)N[C@@H](Cc1ccc(O)cc1)C(N)=O` has a Ki of 0.501 µM (Neuropeptide Y receptor type 4 (NPY4R, Homo sapiens, UniProt P50391); ligand displacement, radioligand).
The Ki of `C[n+]1ccc(C(=O)NC2CCC3(O)C4Cc5ccc(O)c6c5C3(CC[N+]4(C)CC3CC3)C2O6)cc1` (stereo not drawn) is reported as 0.0283 µM (Mu-type opioid receptor (Oprm1, Mus musculus, UniProt P42866); ligand displacement, radioligand; cell membranes).
`CC(C)C[C@H](NC(=O)[C@H](CCCNC(=N)N)NC(=O)[C@@H](NC(=O)[C@H](CC(=O)O)NC(=O)[C@H](CCC(N)=O)NC(=O)[C@@H](NC(=O)[C@@H](NC(=O)[C@H](CCCNC(=N)N)NC(=O)[C@H](CO)NC(=O)[C@@H](N)CO)[C@@H](C)O)C(C)C)[C@@H](C)O)C(=O)O` gave a Ki of 670 ± 400 µM (Tax1-binding protein 3, PDZ domain (TAX1BP3, Homo sapiens, UniProt O14907)).
`CC[C@H](C)[C@@H]1NC(=O)[C@H](Cc2ccc(O)cc2)NC(=O)[C@@H](N)Cn2cc(nn2)CCCC[C@@H](C(=O)N2CCC[C@H]2C(=O)N[C@@H](CC(C)C)C(=O)NCC(N)=O)NC(=O)[C@H](CC(N)=O)NC(=O)[C@H](CCC(N)=O)NC1=O` has a Ki of ~2.8 µM (OXTR; ligand displacement, radioligand).
With `CC[C@H](C)[C@H](NC(=O)[C@@H]1CSSC[C@H](NC(=O)[C@H](Cc2ccc(O)cc2)NC(=O)CNC(C)=O)C(=O)N[C@@H](CO)C(=O)N[C@@H](CCCNC(=N)N)C(=O)N[C@@H](CO)C(=O)N[C@@H](Cc2ccc(O)cc2)C(=O)N2CCC[C@H]2C(=O)N2CCC[C@H]2C(=O)N[C@@H](C(C)C)C(=O)N1)C(=O)N1CCC[C@H]1C(=O)N[C@@H](CC(=O)O)C(N)=O` the Ki was 713 µM (F2; enzyme activity, inhibitor).
`CC[C@H](C)[C@@H]1NC(=O)[C@H](Cc2ccc(O)cc2)NC(=O)[C@@H](N)Cn2cc(nn2)C[C@@H](C(=O)N2CCC[C@H]2C(=O)N[C@@H](CC(C)C)C(=O)NCC(N)=O)NC(=O)[C@H](CC(N)=O)NC(=O)[C@H](CCC(N)=O)NC1=O` has a Ki of 2.5 µM (OXTR; ligand displacement, radioligand; cell membranes).
With `O=[N+]([O-])c1c(Br)c(Cl)c2cccnc2c1O` the Ki was 0.22 µM (Metallo-beta-lactamase type 2 (blaNDM-1, Klebsiella pneumoniae, UniProt C7C422); enzyme activity, inhibitor).

Repeated from above:
`Cc1ccc(-c2nc3c(=O)n(C)c(=O)nc-3n(C)n2)cc1` gave a Ki of 29.4 µM (Trypanothione reductase (TPR, Trypanosoma brucei brucei, UniProt P39051); enzyme activity, inhibitor; with: NADPH varied, fixed trypanothione disulfide).
For `COc1c(OCCOCCOCCOCCOc2cccc(C(=O)C3CCN(CCc4ccc(F)cc4)CC3)c2OC)cccc1C(=O)C1CCN(CCc2ccc(F)cc2)CC1`, the Ki was 0.126 µM (HTR2B; ligand displacement, radioligand).
`CC(C)[C@@H]1NC(=O)[C@H](Cc2ccccc2)NC(=O)[C@]2(CC[C@H](c3ccccc3)CC2)NC(=O)[C@@H](N)CSSC[C@@H](C(=O)N2CCC[C@H]2C(=O)N[C@@H](CCCNC(=N)N)C(=O)NCC(N)=O)NC(=O)[C@H](CC(N)=O)NC1=O` has a Ki of 0.0888 µM (OXTR; ligand displacement, radioligand; cell membranes).
With `C[C@H](NC(=O)[C@H](CCCNC(=N)N)NC(=O)[C@H](CCC(=O)O)NC(=O)[C@H](CCCNC(=N)N)NC(=O)[C@H](CCCNC(=N)N)NC(=O)[C@@H](NC(=O)[C@H](CCCNC(=N)N)NC(=O)[C@H](C)NC(=O)[C@H](CCCNC(=N)N)NC(=O)[C@H](CCC(=O)O)NC(=O)[C@@H](N)CCCNC(=N)N)[C@@H](C)O)C(=O)N[C@@H](CCCNC(=N)N)C(=O)N[C@H](C(=O)N[C@@H](CCCNC(=N)N)C(=O)N[C@@H](CCC(=O)O)C(=O)N[C@@H](CCCNC(=N)N)C(=O)N[C@@H](C)C(=O)N[C@@H](CCCNC(=N)N)C(=O)N[C@H](C(=O)N[C@@H](CCCNC(=N)N)C(=O)O)[C@@H](C)O)[C@@H](C)O` the Ki was 2.12 µM (SRSF protein kinase 1 (SRPK1, Homo sapiens, UniProt Q96SB4); enzyme activity, inhibitor, radiometric).
